Assay results gathered from unrelated publications.
Each numbered part is a random draw from the data of one study; scales do not carry over between parts. Changes are numbered by the printed parent chain.

Series 1
Target: PABPC1L2, full length, GST fusion (mouse, UniProt A0ABA7IW68)
Technique: RNAcompete
Form: RNA
Matrix: in vitro
Tested at: 20 nM
Notes: 7-mer, probes averaged, single round
Relative to: mean of 7-mers
Direction: higher = stronger binding
With `CUACCGA` the 7-mer Z-score was -0.0826.
With `CACCCCU` the 7-mer Z-score was -0.253.
`GAUUUUG` gave a 7-mer Z-score of -0.318.
For `CGCUCGU`, the 7-mer Z-score was -0.478.
`CGGUAAA` gave a 7-mer Z-score of 0.992.
`GGGUCUU` gave a 7-mer Z-score of -0.126.
`ACCACUU` gave a 7-mer Z-score of -0.171.
`UUACACU` gave a 7-mer Z-score of -0.199.

Series 2
Target: Serine/threonine-protein kinase PAK 3 (PAK3, Homo sapiens, UniProt O75914)
Read-out: enzyme activity
Action: inhibitor
Tested at: 0.5 µM
Relative to: control
`Nc1[nH]nc2nc3ccccc3nc12` gave a remaining activity of 98.3%.
`O=c1c2ccccc2[nH]c(=S)n1CCN1CCC(=C(c2ccc(F)cc2)c2ccc(F)cc2)CC1` gave a remaining activity of 94.6%.
`O=C(Nc1cccc(Nc2cc(Nc3cccc(C(F)(F)F)c3)ncn2)c1)C1CC1` has a remaining activity of 101%.
`Cn1sc(=O)n(Cc2ccccc2)c1=O` has a remaining activity of 100%.
`N#CC(C#N)=C(N)/C(C#N)=C/c1ccc(O)cc1` has a remaining activity of 98.4%.
`NCCNc1ncc(C(N)=O)c(Nc2cccc(C(F)(F)F)c2)n1` gave a remaining activity of 93.7%.
The remaining activity of `Cc1nc(-c2ccccc2)c(-c2ccncc2)o1` is reported as 100%.
With `CC(C)[C@H](CO)Nc1nc(Nc2cc(N)cc(Cl)c2)c2ncn(C(C)C)c2n1` the remaining activity was 101%.
For `OCC(O)CCON=C1C(c2c(O)[nH]c3ccccc23)=Nc2ccccc21` (stereo not drawn), the remaining activity was 73.8%.
`O=C1NC(=O)C(c2cn(CCCn3ccnc3)c3ccccc23)=C1Nc1ccccc1` has a remaining activity of 100%.
`Nc1ccc2ncnc(NCCc3ccc(Oc4ccccc4)cc3)c2c1` gave a remaining activity of 102%.
`Cc1ccc(Nc2nccc(N(C)c3ccc4c(C)n(C)nc4c3)n2)cc1S(N)(=O)=O` gave a remaining activity of 90.6%.
For `Oc1ccc(-c2nc(-c3ccncc3)c(-c3ccc(F)cc3)[nH]2)cc1`, the remaining activity was 98.7%.

Series 3
Target: ATF5, bZIP domain (human)
Technique: DHFR protein complementation
Matrix: yeast
Notes: single substitutions, most at no-binding floor
Relative to: wild-type JUN-FOS pair
Direction: higher = stronger binding
Parent: JUN, bZIP domain (human); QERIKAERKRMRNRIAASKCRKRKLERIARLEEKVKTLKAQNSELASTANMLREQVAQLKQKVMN; partner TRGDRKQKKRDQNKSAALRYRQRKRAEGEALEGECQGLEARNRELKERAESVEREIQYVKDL
The binding fitness of `L45F` is reported as -1.48 natural log.
For `Q55P`, the binding fitness was -1.52 natural log.
With `L52Q` the binding fitness was -1.56 natural log.
For `E33K`, the binding fitness was -1.45 natural log.
The binding fitness of `A40P` is reported as -1.53 natural log.
`K34V` gave a binding fitness of -1.47 natural log.
The binding fitness of `L52R` is reported as -1.55 natural log.
The binding fitness of `M51S` is reported as -1.5 natural log.

Series 4
SMILES: CC(=O)C1=C(C)N(c2cccc(C(F)(F)F)c2)C(=O)N[C@@H]1c1ccc(C#N)nc1
Read-out: cell-free assay
Technique: competition with immobilised ligand
Tested at: 1 µM
It gave 83.9% for remaining binding (Aurora kinase A (AURKA, Homo sapiens, UniProt O14965)).
For WEE2 (Homo sapiens, UniProt P0C1S8): remaining binding read 100%.
RET (Homo sapiens, UniProt P07949, M918T) — remaining binding: 100%.
PRKX (Homo sapiens, UniProt P51817) — remaining binding: 100%.
